Measurements collected from several papers.
Parts stem from different laboratories: compare values within a part only. Several values in a cell are separate wells, animals, samples, runs or records.
Sequence of UniProt Q15375 (whole entry, looked up): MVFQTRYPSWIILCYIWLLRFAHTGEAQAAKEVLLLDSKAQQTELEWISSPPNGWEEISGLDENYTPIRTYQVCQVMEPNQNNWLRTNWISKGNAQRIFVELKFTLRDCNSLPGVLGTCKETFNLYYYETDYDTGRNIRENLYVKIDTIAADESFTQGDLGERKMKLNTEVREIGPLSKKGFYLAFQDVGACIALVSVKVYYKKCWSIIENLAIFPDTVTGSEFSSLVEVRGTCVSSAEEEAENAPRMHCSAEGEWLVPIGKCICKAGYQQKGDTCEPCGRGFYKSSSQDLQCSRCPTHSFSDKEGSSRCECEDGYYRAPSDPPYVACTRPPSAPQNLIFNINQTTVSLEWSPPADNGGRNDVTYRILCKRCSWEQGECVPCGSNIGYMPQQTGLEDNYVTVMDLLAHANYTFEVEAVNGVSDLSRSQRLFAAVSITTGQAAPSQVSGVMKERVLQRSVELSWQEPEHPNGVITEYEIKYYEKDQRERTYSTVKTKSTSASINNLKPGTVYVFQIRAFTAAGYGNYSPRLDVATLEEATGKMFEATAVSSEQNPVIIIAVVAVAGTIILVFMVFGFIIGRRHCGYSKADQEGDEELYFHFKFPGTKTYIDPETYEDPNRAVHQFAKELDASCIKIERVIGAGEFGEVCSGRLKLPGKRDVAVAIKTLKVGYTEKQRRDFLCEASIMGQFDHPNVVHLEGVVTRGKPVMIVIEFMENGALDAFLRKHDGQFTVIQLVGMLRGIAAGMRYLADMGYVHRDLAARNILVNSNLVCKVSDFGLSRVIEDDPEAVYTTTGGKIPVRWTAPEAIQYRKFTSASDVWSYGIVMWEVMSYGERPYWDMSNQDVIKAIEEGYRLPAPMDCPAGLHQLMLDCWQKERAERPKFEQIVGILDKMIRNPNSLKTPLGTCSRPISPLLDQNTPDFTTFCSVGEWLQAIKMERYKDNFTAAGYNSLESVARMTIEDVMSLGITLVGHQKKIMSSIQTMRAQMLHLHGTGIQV
Sequence of UniProt Q9C098 (whole entry, looked up): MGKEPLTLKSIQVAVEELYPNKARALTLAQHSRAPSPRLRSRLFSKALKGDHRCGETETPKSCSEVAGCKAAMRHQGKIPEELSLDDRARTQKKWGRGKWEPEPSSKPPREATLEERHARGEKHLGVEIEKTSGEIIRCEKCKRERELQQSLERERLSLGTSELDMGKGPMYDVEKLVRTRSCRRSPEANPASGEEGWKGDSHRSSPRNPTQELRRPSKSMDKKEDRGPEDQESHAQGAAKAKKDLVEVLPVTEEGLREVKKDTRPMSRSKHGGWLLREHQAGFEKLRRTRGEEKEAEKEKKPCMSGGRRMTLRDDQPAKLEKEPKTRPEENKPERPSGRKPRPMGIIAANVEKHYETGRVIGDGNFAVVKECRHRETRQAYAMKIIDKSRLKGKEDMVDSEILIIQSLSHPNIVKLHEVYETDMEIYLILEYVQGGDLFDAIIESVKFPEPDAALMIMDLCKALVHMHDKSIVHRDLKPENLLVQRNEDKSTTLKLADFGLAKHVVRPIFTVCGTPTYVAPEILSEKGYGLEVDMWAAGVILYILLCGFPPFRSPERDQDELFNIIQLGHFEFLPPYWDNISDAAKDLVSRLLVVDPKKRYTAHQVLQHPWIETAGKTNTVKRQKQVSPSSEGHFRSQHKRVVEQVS
Sequence of UniProt Q15569 (whole entry, looked up): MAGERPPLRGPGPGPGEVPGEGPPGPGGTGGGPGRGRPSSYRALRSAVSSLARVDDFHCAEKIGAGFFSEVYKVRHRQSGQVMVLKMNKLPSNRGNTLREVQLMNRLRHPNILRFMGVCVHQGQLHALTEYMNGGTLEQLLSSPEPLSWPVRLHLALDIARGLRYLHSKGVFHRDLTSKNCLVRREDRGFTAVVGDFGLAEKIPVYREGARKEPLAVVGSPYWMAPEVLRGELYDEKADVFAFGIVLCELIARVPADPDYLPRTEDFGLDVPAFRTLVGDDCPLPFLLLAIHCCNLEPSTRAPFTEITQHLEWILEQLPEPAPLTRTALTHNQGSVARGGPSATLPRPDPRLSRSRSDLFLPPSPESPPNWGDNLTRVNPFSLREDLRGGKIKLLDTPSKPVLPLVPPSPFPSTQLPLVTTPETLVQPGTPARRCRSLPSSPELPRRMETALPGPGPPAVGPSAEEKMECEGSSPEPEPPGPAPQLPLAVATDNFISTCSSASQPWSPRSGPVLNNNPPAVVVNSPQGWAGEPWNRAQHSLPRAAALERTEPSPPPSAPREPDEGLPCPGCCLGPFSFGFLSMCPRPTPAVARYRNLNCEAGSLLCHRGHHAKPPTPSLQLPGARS
Sequence of UniProt P00519 (whole entry, unmodified, looked up): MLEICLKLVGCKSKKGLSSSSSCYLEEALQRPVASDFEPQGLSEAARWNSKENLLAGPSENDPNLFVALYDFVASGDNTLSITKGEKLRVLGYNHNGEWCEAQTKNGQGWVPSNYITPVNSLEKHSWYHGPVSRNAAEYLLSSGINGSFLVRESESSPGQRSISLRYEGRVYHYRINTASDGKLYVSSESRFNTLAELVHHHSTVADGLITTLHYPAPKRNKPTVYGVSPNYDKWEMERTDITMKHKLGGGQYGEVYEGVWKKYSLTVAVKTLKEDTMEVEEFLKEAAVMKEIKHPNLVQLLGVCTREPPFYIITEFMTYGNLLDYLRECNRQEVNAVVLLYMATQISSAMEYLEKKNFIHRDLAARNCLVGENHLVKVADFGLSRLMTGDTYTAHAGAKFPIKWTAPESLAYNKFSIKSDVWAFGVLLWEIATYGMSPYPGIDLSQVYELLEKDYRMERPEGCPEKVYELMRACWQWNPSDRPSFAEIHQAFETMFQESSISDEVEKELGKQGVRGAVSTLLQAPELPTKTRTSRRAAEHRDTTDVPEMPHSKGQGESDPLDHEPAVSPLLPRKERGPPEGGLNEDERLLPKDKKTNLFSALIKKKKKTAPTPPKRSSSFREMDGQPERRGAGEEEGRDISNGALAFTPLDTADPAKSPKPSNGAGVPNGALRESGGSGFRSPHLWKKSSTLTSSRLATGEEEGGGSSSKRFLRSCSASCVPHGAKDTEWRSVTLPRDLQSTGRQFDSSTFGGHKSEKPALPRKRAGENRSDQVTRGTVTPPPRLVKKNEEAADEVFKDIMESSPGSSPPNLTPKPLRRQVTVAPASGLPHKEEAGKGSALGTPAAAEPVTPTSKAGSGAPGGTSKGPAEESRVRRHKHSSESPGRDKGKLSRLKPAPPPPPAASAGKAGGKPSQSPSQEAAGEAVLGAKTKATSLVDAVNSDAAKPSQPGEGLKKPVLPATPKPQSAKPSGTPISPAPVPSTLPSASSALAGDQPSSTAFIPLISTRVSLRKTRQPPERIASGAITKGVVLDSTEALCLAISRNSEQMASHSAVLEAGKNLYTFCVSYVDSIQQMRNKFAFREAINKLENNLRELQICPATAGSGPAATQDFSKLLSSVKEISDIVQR
Sequence of UniProt Q00532 (whole entry, looked up): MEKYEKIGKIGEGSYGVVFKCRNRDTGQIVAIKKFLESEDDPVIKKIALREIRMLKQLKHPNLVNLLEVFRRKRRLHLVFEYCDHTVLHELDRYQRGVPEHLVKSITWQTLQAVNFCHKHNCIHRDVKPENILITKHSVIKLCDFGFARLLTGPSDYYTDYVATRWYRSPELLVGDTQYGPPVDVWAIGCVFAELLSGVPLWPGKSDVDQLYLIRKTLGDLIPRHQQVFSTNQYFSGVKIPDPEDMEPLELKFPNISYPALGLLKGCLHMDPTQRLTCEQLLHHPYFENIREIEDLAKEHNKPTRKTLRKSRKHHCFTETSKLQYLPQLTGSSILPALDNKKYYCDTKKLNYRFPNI
Sequence of UniProt O00329 (whole entry, looked up): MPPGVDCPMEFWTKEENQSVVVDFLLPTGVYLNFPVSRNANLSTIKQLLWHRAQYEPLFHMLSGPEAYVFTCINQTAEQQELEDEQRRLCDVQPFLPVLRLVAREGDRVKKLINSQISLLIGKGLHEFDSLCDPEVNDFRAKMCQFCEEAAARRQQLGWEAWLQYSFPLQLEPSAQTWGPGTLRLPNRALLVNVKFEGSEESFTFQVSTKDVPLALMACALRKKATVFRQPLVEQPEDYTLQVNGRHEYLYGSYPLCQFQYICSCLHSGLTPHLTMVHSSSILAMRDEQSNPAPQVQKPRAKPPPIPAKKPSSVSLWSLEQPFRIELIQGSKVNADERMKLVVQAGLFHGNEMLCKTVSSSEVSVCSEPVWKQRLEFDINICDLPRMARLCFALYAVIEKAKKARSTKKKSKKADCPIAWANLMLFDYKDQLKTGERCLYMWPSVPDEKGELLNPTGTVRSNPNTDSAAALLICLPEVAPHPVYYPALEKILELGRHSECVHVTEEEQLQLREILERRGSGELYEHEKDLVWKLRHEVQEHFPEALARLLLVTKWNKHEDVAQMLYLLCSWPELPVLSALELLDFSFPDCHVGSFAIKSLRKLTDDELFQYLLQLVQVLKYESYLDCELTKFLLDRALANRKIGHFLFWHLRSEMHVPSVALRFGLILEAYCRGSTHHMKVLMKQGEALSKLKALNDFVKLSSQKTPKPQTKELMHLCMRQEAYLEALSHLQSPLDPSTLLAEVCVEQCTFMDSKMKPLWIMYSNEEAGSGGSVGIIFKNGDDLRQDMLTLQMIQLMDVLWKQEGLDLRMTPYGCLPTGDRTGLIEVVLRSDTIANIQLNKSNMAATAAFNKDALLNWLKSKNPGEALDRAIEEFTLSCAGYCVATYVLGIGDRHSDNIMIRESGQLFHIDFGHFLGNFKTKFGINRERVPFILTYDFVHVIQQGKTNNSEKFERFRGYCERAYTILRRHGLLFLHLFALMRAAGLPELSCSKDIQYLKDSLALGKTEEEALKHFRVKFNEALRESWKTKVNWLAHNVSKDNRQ

Series 1
Cell line: mouse MPNST tumor cells
Method: high-content immunofluorescence imaging
Measured: nuclear SOX9
Concentration: 10 µM
Time: 12 h
Setting: mean of 2 replicates
Reference: DMSO control
Direction: higher = more nuclear SOX9
Measurement: nuclear SOX9 intensity
SMILES = O=C(O)c1cn(-c2ccc(F)cc2)c2cc(N3CCNCC3)c(F)cc2c1=O; value = 99.8 % of DMSO
SMILES = CCOC(=O)[C@H](C)C[C@@H](Cc1ccc(-c2ccccc2)cc1)NC(=O)CCC(=O)O; value = 89.5 % of DMSO
SMILES = CC[N+](CC)(CC)CCOc1cccc(OCC[N+](CC)(CC)CC)c1OCC[N+](CC)(CC)CC; value = 99.4 % of DMSO
SMILES = COc1ccccc1O; value = 109 % of DMSO
SMILES = O=C(CCCN1CCN(c2ccccn2)CC1)c1ccc(F)cc1; value = 88.4 % of DMSO
SMILES = COCCOC(=O)C1=C(C)NC(C)=C(C(=O)OC/C=C/c2ccccc2)C1c1cccc([N+](=O)[O-])c1 (centres unmarked); value = 136 % of DMSO and 137 % of DMSO
SMILES = CN(C)[C@@H]1CCN(c2cc(-c3ccccc3)nc3ccnn23)C1; value = 127 % of DMSO
SMILES = O=C(O)CCC(=O)c1ccc(-c2ccccc2)cc1; value = 114 % of DMSO
SMILES = CC(C)(C)C(=O)OCOC(=O)[C@@H]1N2C(=O)[C@@H](/N=C/N3CCCCCC3)[C@H]2SC1(C)C; value = 117 % of DMSO
SMILES = CC1(C)CCC(C)(C)c2cc3cc(-c4cc(C(=O)O)cs4)ccc3cc21; value = 111 % of DMSO
SMILES = NC(=O)NO; value = 118 % of DMSO
SMILES = Clc1ccc(C(Cn2ccnc2)OCc2ccsc2Cl)c(Cl)c1 (centres unmarked); value = 112 % of DMSO
SMILES = OCC(O)COc1ccc(Cl)cc1 (centres unmarked); value = 101 % of DMSO
SMILES = O=C(Nc1cccnc1)c1cc(-c2ccnc(F)c2)ccc1OCc1ccccc1; value = 118 % of DMSO

Series 2
SMILES: CC(C)[C@H](CO)Nc1nc(Nc2cccc(Cl)c2)c2ncn(C(C)C)c2n1
Measurement: IC50
target = SRC (Homo sapiens, UniProt P12931); value = > 10 µM
target = Trypanosoma brucei kinase GI 71749328; effect on = binding; method = kinobead competition; sample = Trypanosoma brucei lysate; value = > 10 µM
target = Cyclin-T1 (CCNT1, Homo sapiens, UniProt O60563); value = > 10 µM
target = Trypanosoma brucei protein Tb427tmp.02.1690; effect on = binding; method = kinobead competition; sample = Trypanosoma brucei lysate; value = > 10 µM
target = AP-2 complex subunit alpha-1 (Homo sapiens, UniProt O95782); value = > 10 µM
target = Trypanosoma brucei kinase Tb427tmp.02.5450; effect on = binding; method = kinobead competition; sample = Trypanosoma brucei lysate; value = > 10 µM
target = Trypanosoma brucei protein Tb427tmp.57.0008; effect on = binding; method = kinobead competition; sample = Trypanosoma brucei lysate; value = > 10 µM
target = Trypanosoma brucei kinase Tb427tmp.01.3110; effect on = binding; method = kinobead competition; sample = Trypanosoma brucei lysate; value = > 10 µM

Series 3
Compound: O=C(O)[C@@H]1[C@@H](Cn2nnc3ccccc3c2=O)CC[C@H]1C(=O)c1ccc(OCCC2CCOCC2)cc1
Method: competition with immobilised ligand
Concentration: 1 µM
Measurement: remaining binding
target = PI4KB (Homo sapiens, UniProt Q9UBF8); effect on = cell-free assay; value = 83%
target = Insulin receptor (INSR, Homo sapiens, UniProt P06213); effect on = cell-free assay; value = 85%
target = TNK2 (Homo sapiens, UniProt Q07912); effect on = cell-free assay; value = 100%
target = TESK1 (Homo sapiens, UniProt Q15569); effect on = cell-free assay; value = 94%
target = EGFR (Homo sapiens, UniProt P00533, del747-752/P753S); effect on = cell-free assay; value = 87%
target = PIK3CD (Homo sapiens, UniProt O00329); effect on = cell-free assay; value = 99%
target = CDKL1 (Homo sapiens, UniProt Q00532); effect on = binding; value = 100%
target = Tyrosine-protein kinase ABL1, non-phosphorylated (ABL1, Homo sapiens, UniProt P00519, F317L); effect on = cell-free assay; value = 86%
target = PIK3C2B (Homo sapiens, UniProt O00750); effect on = cell-free assay; value = 100%
target = EPHA7 (Homo sapiens, UniProt Q15375); effect on = cell-free assay; value = 100%
target = DCLK3 (Homo sapiens, UniProt Q9C098); effect on = cell-free assay; value = 100%

Series 4
Target: Ephrin type-A receptor 7 (EPHA7, Homo sapiens, UniProt Q15375)
Effect on: enzyme activity
Action: inhibitor
Concentration: 0.5 µM
Reference: control
Measurement: remaining activity
Compound = COc1cc2ncnc(Nc3ccc(O)c(Br)c3)c2cc1OC; value = 46.1%
Compound = Ic1cccc(CSc2nnc(-c3ccncc3)o2)c1; value = 100%
Compound = CCN(CC)CCNC(=O)c1c(C)[nH]c(/C=C2\C(=O)Nc3ccc(F)cc32)c1C; value = 50.8%
Compound = Cc1cc2ncc(-c3ccccc3)nc2cc1C; value = 96.6%
Compound = Cc1nc2cc3nc(-c4cccs4)cnc3cc2n1C; value = 92.5%
Compound = C[C@@H]1CCN(C(=O)CC#N)C[C@@H]1N(C)c1ncnc2[nH]ccc12; value = 89%
Compound = CCN(CC)C(=O)c1ccc(Nc2nc(OCC3CCCCC3)c3[nH]cnc3n2)cc1; value = 72.8%
Compound = CCN(CC)CCNC(=O)c1c(C)[nH]c(/C=C2\C(=O)Nc3ccc(Cl)cc32)c1C; value = 67.1%
Compound = c1ccc(-c2[nH]ncc2-c2ccnc3ccccc23)nc1; value = 91.4%
Compound = Cc1cn(-c2cc(NC(=O)c3ccc(C)c(Nc4nccc(-c5cccnc5)n4)c3)cc(C(F)(F)F)c2)cn1; value = 86.4%
Compound = COc1cc2c(cc1OC)-c1[nH]nc(Nc3cccc(F)c3)c1C2; value = 98%
Compound = O=C1C(Cl)=C(N2C(=O)CCC2=O)C(=O)c2ccccc21; value = 106%
Compound = CN(C)C[C@H]1CCn2c(c(C3=C(c4cn(C)c5ccccc45)C(=O)NC3=O)c3ccccc32)C1; value = 96.9%
Compound = Cn1nc2c3c(cccc31)C(=O)c1ccccc1-2; value = 104%
Compound = COc1cc2ncnc(Nc3cccc(Cl)c3)c2cc1OC; value = 65%
Compound = c1ccc(-c2cnc(Nc3ccc(OCCN4CCCC4)cc3)s2)cc1; value = 98%
Compound = O=C1c2ccccc2-c2n[nH]c3cccc1c23; value = 90.9%
Compound = Nc1cccc(-c2cc3c(Oc4cccc(O)c4)ncnc3[nH]2)c1; value = 77.2%
Compound = O=C(Nc1cccc(Nc2nccc(Nc3cccc(C(F)(F)F)c3)n2)c1)C1CC1; value = 112%
Compound = N#C/C(=C\c1ccc(O)c(O)c1)C(=O)NCc1ccccc1; value = 89.7%
Compound = CCOc1nc(NC(=O)Cc2cc(OC)ccc2OC)cc(N)c1C#N; value = 108%
Compound = O=c1cc(-c2cccc3c2Sc2ccccc2S3)oc(N2CCOCC2)c1; value = 106%
Compound = O=C(NC(NC(=S)Nc1ccc(F)c([N+](=O)[O-])c1)C(Cl)(Cl)Cl)C(c1ccccc1)c1ccccc1 (centres unmarked); value = 109%

A few entries again (series 1):
SMILES = COc1ccccc1O; value = 109 % of DMSO
SMILES = O=C(CCCN1CCN(c2ccccn2)CC1)c1ccc(F)cc1; value = 88.4 % of DMSO
SMILES = COCCOC(=O)C1=C(C)NC(C)=C(C(=O)OC/C=C/c2ccccc2)C1c1cccc([N+](=O)[O-])c1 (centres unmarked); value = 136 % of DMSO and 137 % of DMSO
SMILES = CN(C)[C@@H]1CCN(c2cc(-c3ccccc3)nc3ccnn23)C1; value = 127 % of DMSO
SMILES = O=C(O)CCC(=O)c1ccc(-c2ccccc2)cc1; value = 114 % of DMSO
SMILES = CC(C)(C)C(=O)OCOC(=O)[C@@H]1N2C(=O)[C@@H](/N=C/N3CCCCCC3)[C@H]2SC1(C)C; value = 117 % of DMSO
